Published values gathered from unrelated publications.
A part holds a random share of what one study measured. Values joined by “and” are separate records of one study, mostly repeats; a detail may differ.

Study 1 — read-out: enzyme activity; action: inhibitor; concentration: 10 µM
Target: Calcium/calmodulin-dependent protein kinase type II subunit alpha (CAMK2A, Homo sapiens, UniProt Q9UQM7)
With `CC(C)C(N)CC(=O)O` (stereo not shown) the inhibition was -18%.
`CC[N+](C)(CC)CCOC(=O)C(O)(c1ccccc1)c1ccccc1` has an inhibition of -14%.
`C[C@H]1CCCC(=O)CCCCCc2cc(O)cc(O)c2C(=O)O1` has an inhibition of 14%.
The inhibition of `CC(C(=O)O)C(=O)O` is reported as 1%.
The inhibition of `C=C/C=C/C[C@@H](C)[C@@H](O)[C@H]1C(=O)N[C@@H](CC)C(=O)N(C)CC(=O)N(C)[C@@H](CC(C)C)C(=O)N[C@@H](C(C)C)C(=O)N(C)[C@@H](CC(C)C)C(=O)N[C@@H](C)C(=O)N[C@H](C)C(=O)N(C)[C@@H](CC(C)C)C(=O)N(C)[C@@H](CC(C)C)C(=O)N(C)[C@@H](C(C)C)C(=O)N1C` is reported as -3%.
With `COC(=O)C1=CCCNC1` the inhibition was 1%.
For `CC(C)(C)[C@]1(O)C[C@@H]2OC(=O)C[C@@]23C(=O)O[C@@H]2OC(=O)[C@H](O)[C@]213`, the inhibition was 17%.
For `CC[C@H]1CN2CC[C@]3(C(=O)Nc4ccccc43)[C@@H]2C[C@@H]1/C(=C\OC)C(=O)OC`, the inhibition was -31%.

Study 2
SMILES: CC(C)(C)OC(=O)N[C@H]1CCCCC/C=C\[C@@H]2C[C@@]2(C(=O)NS(=O)(=O)C2CC2)NC(=O)[C@@H]2C[C@@H](OC(=O)N3Cc4cccc(F)c4C3)CN2C1=O
Genome polyprotein R1181K NS3 protease: Genome polyprotein, NS3 protease (Hepatitis C virus genotype 1b, UniProt Q9WMX2, R1181K)
Genome polyprotein R1181Q NS3 protease: Genome polyprotein, NS3 protease (Hepatitis C virus genotype 1b, UniProt Q9WMX2, R1181Q)
Genome polyprotein: Genome polyprotein (Hepatitis C virus genotype 1b, UniProt Q9WMX2)
Genome polyprotein R1181K NS3 protease; 0.1 µM — inhibition: 57%.
For Genome polyprotein R1181Q NS3 protease; 0.01 µM: inhibition read 22%.
The inhibition was 93% (Genome polyprotein; protease activity, inhibitor; 0.01 µM).
The inhibition was 26% (Genome polyprotein; protease activity, inhibitor; 0.0001 µM).
Genome polyprotein R1181K NS3 protease; 1 µM — inhibition: 94%.
Genome polyprotein R1181Q NS3 protease; 1 µM — inhibition: 99%.

Study 3 — read-out: enzyme activity; action: inhibitor; method: radiometric; concentration: 0.5 µM
Target: Dual specificity tyrosine-phosphorylation-regulated kinase 1B (DYRK1B, Homo sapiens, UniProt Q9Y463)
`O=C(O)/C=C/c1cc(Br)c(Br)c(Br)c1Br` gave a remaining activity of 79.1%.
For `Clc1ccc(Nc2nnc(Cc3ccncc3)c3ccccc23)cc1`, the remaining activity was 109%.
The remaining activity of `c1cc(-c2cnn3cc(-c4ccc(OCCN5CCCCC5)cc4)cnc23)ccn1` is reported as 26.2%.
`O=C(c1ccccc1)c1ccc(N2CCOCC2)cc1O` has a remaining activity of 105%.
`FC(F)(F)c1ccc(/C=C/c2nc(COc3ccc(CCCCn4ccnn4)cc3)co2)cc1` has a remaining activity of 96.7%.
For `CC(C)N(CCC(=O)c1ccc2ccccc2c1)Cc1ccccc1`, the remaining activity was 101%.
`CCN(CC)CCCCN1c2ccccc2Oc2ccc(Cl)cc21` has a remaining activity of 101%.
For `O=C1c2ccccc2-c2nc3nnnn3nc21`, the remaining activity was 81%.
`COc1cc2c(N3CCN(C(=O)Nc4ccc(OC(C)C)cc4)CC3)ncnc2cc1OCCCN1CCCCC1` has a remaining activity of 97.9%.
For `NC(=O)c1ccc(-c2nc(-c3ccc4c(c3)OCCO4)c(-c3ccccn3)[nH]2)cc1`, the remaining activity was 100%.
With `N#CC(c1ccnc(NCCc2cccnc2)n1)c1nc2ccccc2s1` (stereo not shown) the remaining activity was 53.2%.
`CCn1cnc2c(Nc3cccc(Cl)c3)nc(N[C@H]3CCCC[C@H]3N)nc21` gave a remaining activity of 94.4%.

Study 4 — action: degrader; method: HiBiT luminescence; time: 24 h
SMILES: Cc1ncsc1-c1ccc([C@H](C)NC(=O)[C@@H]2C[C@@H](O)CN2C(=O)[C@@H](NC(=O)CNC(=O)c2ccc(F)c(-c3ccc(N4C[C@@H](C)N(C)[C@@H](C)C4)c(NC(=O)c4c[nH]c(=O)cc4C(F)(F)F)c3)c2)C(C)(C)C)cc1
Target: WDR5/DCAF1 (Homo sapiens, UniProt P61964+Q9Y4B6)
For 0.2 nM: “remaining protein level” read 94% and 88.9% and 90% and 90.5%.
It gave 20.5% and 22.5% and 22.9% and 20.9% for “remaining protein level” (388 nM).
The “remaining protein level” was 72.4% and 73.7% and 82.1% and 75.3% (1.4 nM).
8.81 nM — “remaining protein level”: 45% and 52.5% and 40.1% and 45.3%.
151 nM — “remaining protein level”: 20.4% and 28.4% and 23.5% and 27%.

Excerpt of the above (study 4):
For 0.2 nM: “remaining protein level” read 94% and 88.9% and 90% and 90.5%.
The “remaining protein level” was 72.4% and 73.7% and 82.1% and 75.3% (1.4 nM).
It gave 20.5% and 22.5% and 22.9% and 20.9% for “remaining protein level” (388 nM).
8.81 nM — “remaining protein level”: 45% and 52.5% and 40.1% and 45.3%.
